Published values gathered from unrelated publications.
“And” joins repeats or separate records; there may be more than shown. ± gives the spread as reported. Values after ≈ are worked out from the molar mass of the structure shown.

CN(Cc1ccc(C2(C(F)(F)F)CCC2)cc1)Cc1cccc2ccccc12
solubility (PBS; 2 h, pH 7.4, 25 °C, 2% DMSO): 7 µM (≈ 2.68 µg/mL)

C=C1CC[C@H](OCCCNC(=O)CCOCCOCCOCCOCCOCCOCCOCCOCCOCCOCCOCCOCCOCCOCCOCCOCCOCCOCCOCCOCCOCCOCCOCCOCCOCCOCCOCCOCCOCCOCCOCCOCCOCCOCCOCCOCCNC(=O)CCN2C(=O)CC(SC[C@H](NC(=O)[C@H](Cc3ccccc3)NC(=O)[C@H](CC(N)=O)NC(=O)[C@H](Cc3c[nH]cn3)NC(=O)[C@@H](NC(=O)[C@H](CC(=O)O)NC(=O)[C@H](CCC(N)=O)NC(=O)[C@H](CC(C)C)NC(=O)[C@H](CCCCN)NC(=O)[C@H](CCCCN)NC(=O)[C@H](CCCNC(=N)N)NC(=O)[C@H](CC(C)C)NC(=O)[C@H](Cc3c[nH]c4ccccc34)NC(=O)[C@H](CCC(=O)O)NC(=O)[C@@H](NC(=O)[C@H](CCCNC(=N)N)NC(=O)[C@H](CCC(=O)O)NC(=O)[C@H](CCSC)NC(=O)[C@H](CO)NC(=O)[C@H](CC(N)=O)NC(=O)[C@H](CC(C)C)NC(=O)[C@H](Cc3c[nH]cn3)NC(=O)[C@H](CCCCN)NC(=O)CNC(=O)[C@H](CC(C)C)NC(=O)[C@H](CC(N)=O)NC(=O)[C@H](Cc3c[nH]cn3)NC(=O)[C@H](CCSC)NC(=O)[C@H](CC(C)C)NC(=O)[C@H](CCC(N)=O)NC(=O)[C@@H](NC(=O)[C@H](CCC(=O)O)NC(=O)[C@H](CO)NC(=O)[C@@H](NC(=O)[C@@H](N)CO)C(C)C)[C@@H](C)CC)C(C)C)C(C)C)C(=O)O)C2=O)C/C1=C/C=C1\CCC[C@]2(C)[C@@H]([C@H](C)CCCC(C)(C)O)CC[C@@H]12 (some centres unmarked)
AUC(0-t) (male Sprague-Dawley rat, plasma; intravenous, 100 µg/kg, single dose): 4380 ng·h/mL

COc1cccc(OC)c1-c1cc(C(=O)NC2(C(=O)O)C3CC4CC(C3)CC2C4)nn1-c1ccc(C(=O)NCCNC(=O)[C@H](CCCCNC(=O)[C@H](CC(C)C)NC(=O)C2OC2C(=O)O)NC(=O)CN2CCN(CC(=O)[O-])CCN(CC(=O)[O-])CCN(CC(=O)[O-])CC2)cc1C(C)C.[177Lu+3] (mixture of isomers)
tumour-to-small intestine ratio (mouse HT-29 xenograft; 72 h, biodistribution; relative to: tumour over small intestine): 16.6

CN(O)C(=O)CCC(=O)NCCCN(CCCCN(CCCNC(=O)CCC(=O)N(C)O)C(=O)CCC(=O)N(C)O)C(=O)CCC(=O)N(C)O.[89Zr]
intact complex (radio-TLC; aqueous buffer; 1 d, pH 7.2, 37 °C, 89Zr-labelled complex, added: CoCl2 10-fold excess): 97.7 ± 1.4%

CCC(CC)n1c(Cc2cccs2)nc2cc(C(=O)N[C@@H](CC(=O)O)c3ccccc3)ccc21
AUC(0-t) (male Sprague-Dawley rat, plasma; intravenous, 1 mg/kg): 550 ng·h/mL

[123I]c1ccc2nc(-c3ccc(-n4ccnn4)nc3)cn2c1
tracer uptake (male Wistar rat, brain; intravenous, 4 MBq, 6 h): 0.006 %ID/g

C=CC(=O)Nc1cccc(Cn2ncc3cnc(Nc4cnn(CCOC)c4)nc32)c1
remaining compound (human, both sexes, whole blood; 5 µM, 30 min): 90.4%

CNS(=O)(=O)Nc1nccc(Cc2c(C)c3ccc(Oc4ncccc4F)cc3oc2=O)c1F
IC50 (KU-812F; cell viability; 7 days): 945 pM

CC[C@H](C)[C@H](NC(=O)[C@H](CC(N)=O)NC(=O)[C@@H](N)CCSC)C(=O)N[C@@H](CCSC)C(=O)N[C@@H](CC(=O)O)C(=O)N[C@@H](Cc1ccccc1)C(=O)N[C@@H](CC(N)=O)C(=O)N[C@H](C(=O)N[C@@H](CCCCN)C(=O)N[C@@H](CCCCN)C(=O)N[C@@H](CC(C)C)C(=O)N[C@@H](C)C(=O)N[C@@H](C)C(=O)N[C@@H](CC(=O)O)C(=O)N[C@@H](C)C(=O)NCC(=O)N[C@H](C(=O)N[C@@H](Cc1c[nH]c2ccccc12)C(=O)N[C@@H](CC(C)C)C(=O)N[C@@H](CO)C(=O)N[C@@H](CCCNC(=N)N)C(=O)N[C@@H](C)C(=O)N[C@H](C(=O)N[C@@H](CCC(N)=O)C(=O)N[C@@H](Cc1ccccc1)C(=O)N[C@H](C(=O)N[C@@H](CCC(=O)O)C(=O)N[C@@H](CCC(=O)O)C(=O)N[C@@H](CCCCN)C(=O)N[C@@H](CC(C)C)C(=O)NCC(=O)N[C@@H](CCC(N)=O)C(=O)N[C@@H](C)C(N)=O)[C@@H](C)O)C(C)C)[C@@H](C)O)C(C)C
folding free energy (water): 2.99 kcal/mol

Cc1ccc(CN2C(=O)/C(=N\c3ccc(Cl)cc3Br)c3ccccc32)cc1
MCV (mouse, blood; 200 mg/kg): 46.73 ± 0.42 fL

C=CC(=O)Nc1cc(Nc2nccc(-c3cn(C)c4ccccc34)n2)c(OC)cc1N(C)CCNC
recovery (storage stability; human plasma; 5 h, on ice, LLOQ level): 94.5%

COCC1CN(C2CCN(c3cc(OC)c(Nc4ncc(Br)c(Nc5ccc6c(c5P(C)(C)=O)OCCO6)n4)cc3C)CC2)C1
adverse events (first-in-human trial; human; oral, 10 mg once daily; treatment-related leading to permanent discontinuation): 0%

CC[C@H](C)[C@@H]1NC(=O)[C@H](Cc2ccc(O)cc2)NC(=O)CCCSC[C@@H](C(=O)N(CC(=O)N[C@@H](CC(C)C)C(=O)NCC(N)=O)Cc2ccc(F)cc2)NC(=O)[C@H](CC(N)=O)NC(=O)[C@H](CCC(N)=O)NC1=O
subjects with any TEAE (human; intranasal, 200 µg single dose): 67%

CC(C)C[C@H](NC(=O)[C@H](CCCN)NC(=O)CNC(=O)[C@@H](NC(=O)[C@H](C)NC(=O)[C@@H]1CSCSC[C@H](NC(=O)CC[C@H](N)C(=O)O)C(=O)N[C@@H](CC(N)=O)C(=O)N[C@@H]([C@@H](C)O)C(=O)N[C@@H](C)C(=O)N[C@@H]([C@@H](C)O)C(=O)N1)[C@@H](C)O)C(=O)N[C@@H](C)C(=O)N[C@@H](CCC(=O)O)C(=O)N[C@@](C)(Cc1ccccc1)C(=O)N[C@@H](CC(C)C)C(=O)N[C@H](C(=O)N[C@@H](CCCNC(=N)N)C(=O)N[C@@H](CO)C(=O)N[C@@H](CO)C(=O)N[C@@H](CC(N)=O)C(=O)N(C)[C@@H](CC(N)=O)C(=O)N[C@@H](Cc1ccccc1)C(=O)NCC(=O)N1CCC[C@H]1C(=O)N[C@@H](CCCCNC(=O)CC[C@H](NC(=O)CC[C@H](NC(=O)CCCCCCCCCCCCCCCCCCC(=O)O)C(=O)O)C(=O)O)C(=O)N[C@@H](CC(C)C)C(=O)N1CCC[C@H]1C(=O)N1CCC[C@H]1C(=O)N[C@H](C(=O)N[C@@H](CCC(=O)O)C(=O)N[C@H](C(=O)NCC(=O)N[C@@H](CO)C(=O)N[C@@H](CC(N)=O)C(=O)N[C@H](C(=O)N[C@@H](Cc1ccc(O)cc1)C(N)=O)[C@@H](C)O)C(C)C)[C@@H](C)O)C(C)C
%AUC extrapolated (healthy human; subcutaneous, 0.4 mg): 5.6%

COC1CN([C@H]2CC[C@H]([C@@]3(C)Oc4c(Cl)cc(C(=O)NCc5c(SC)cc(C)[nH]c5=O)c(C)c4O3)CC2)C1
log2 fold change (RNA-seq, item: RIDA; human, whole blood; dose not given, 24 h; relative to: pretreatment baseline): 2.3

CC[C@H](C)[C@@H]1NC(=O)[C@H](CCCNC(=N)N)NC(=O)[C@@H](NC(=O)[C@H](CCCCN)NC(=O)[C@H](Cc2c[nH]c3ccccc23)NC(C)=O)CSC=CCCC[C@@H](C(=O)N[C@@H](CCCNC(=N)N)C(=O)N[C@@H](CC(C)C)C(=O)N[C@@H](CC(C)C)C(=O)N[C@@H](CCC(N)=O)C(=O)N[C@@H](CCC(=O)O)C(N)=O)NC(=O)[C@H](CC(C)C)NC1=O
helicity (circular dichroism; 10 mM phosphate buffer; pH 7.4, 20 °C): 44%

O=C([O-])CN1CCN(CC(=O)[O-])CCN(C(CO)C(O)CO)CCN(CC(=O)[O-])CC1.[Dy+3] (centres unmarked)
cumulative urinary excretion (ICP-MS; cynomolgus monkey; 8 h, MB study group; relative to: dose): 83%

Cc1ncsc1-c1ccc(C(C)NC(=O)C2CC(O)CN2C(=O)C(NC(=O)CCCCCCCCCCN2CCCC(Nc3ncc(Cl)c(Nc4ccccc4S(=O)(=O)C(C)C)n3)C2)C(C)(C)C)cc1 (centres unmarked)
log2 fold change (22Rv1; RNA-seq, item: SLC30A4 mRNA; concentration not given; relative to: DMSO): -1.23

CC(C)OCCOCc1ccc(OCC(O)CN(N=O)C(C)C)cc1 (centres unmarked)
revertant fold increase (Salmonella typhimurium; Ames test; TA1537; 5 µg/plate, 30 % hamster S9; relative to: solvent control): 0.8 fold

CN1CCCNC(=O)c2cccc(c2)C(=O)NCCCN(C)CCCNc2cccc3c2C(=O)c2cccc(c2C3=O)NCCC1
log2 fold change (SAS; RNA-Seq, item: MPHOSPH8 mRNA; 1 µM, 6 h; relative to: untreated cells): -0.677

C=CC[C@@H]1/C=C(\C)C[C@H](C)C[C@H](OC)[C@H]2O[C@@](O)(C(=O)C(=O)N3CCCC[C@H]3C(=O)O[C@H](/C(C)=C/[C@@H]3CC[C@@H](O)[C@H](OC)C3)[C@H](C)[C@@H](O)CC1=O)[C@H](C)C[C@@H]2OC
dose-normalized AUC(0-12h) (kidney transplant recipients, CYP3A5 *3/*3, whole blood; oral, dose not given, early and late phases, limited sampling): 151 ng·h/mL

C=C(NC(=O)c1csc(-c2nc3c(cc2O)-c2nc(cs2)C(=O)NC(C(C)O)C(=O)NC(=C(C)OC)c2nc(cs2)C(=O)NC2c4nc(cs4)C(=O)NC(COC(=O)c4c5c6c(cccc6n4O)COC(=O)C(OC4CC(C)(O)C(N(C)C)C(C)O4)C2OC5)c2nc-3cs2)n1)C(N)=O (centres unmarked)
half-life (cynomolgus monkey, both sexes, plasma; intravenous infusion, 1.5 mg/kg twice daily, 0 to 6 h, first dose): 54.6 ± 4.2 min

COc1cccc(OC)c1-c1cc(C(=O)NC2(C(=O)O)C3CC4CC(C3)CC2C4)nn1-c1ccc(C(=O)N(C)CCCN(C)CCCN(C)C(=O)[C@H](CCCCNC(=O)[C@H](CC(C)C)NC(=O)C2OC2C(=O)O)NC(=O)CN2CCN(CC(=O)[O-])CCN(CC(=O)[O-])CCN(CC(=O)[O-])CC2)cc1C(C)C.[177Lu+3] (mixture of isomers)
tumour-to-lung ratio (mouse, HT-29 xenograft; 24 h post injection, biodistribution; relative to: tumour over lung uptake): 20.2

CCCC[C@H](NC(=O)CNC(=O)CNC(=O)[C@H](CCCCNC(=O)[C@H](CC(=O)O)NC(=O)C(C)c1ccc(CC(C)C)cc1)NC(=O)CN1CCN(CC(=O)O)CCN(CC(=O)O)CCN(CC(=O)O)CC1)C(=O)N[C@H]1CC(=O)NCCCC[C@@H](C(N)=O)NC(=O)[C@H](Cc2c[nH]c3ccccc23)NC(=O)[C@H](CCCNC(=N)N)NC(=O)[C@@H](Cc2ccccc2)NC(=O)[C@H](Cc2c[nH]cn2)NC1=O (some centres unmarked) [lutetium-177 labelled]
tissue uptake (C57 mouse, tumor; intravenous, 2 h, added: 10 µg NDP-MSH co-injection): 2.69 ± 0.54 %ID/g

CCCCCCCCCCO[Si](CCCCN(C)C)(OCCCCCCCCCC)OCCCCCCCCCC
zeta potential (pH 7.5, formulated): -0.05 mV

CC(C)(C)NCC(SS(=O)(=O)O)c1ccccc1 (centres unmarked)
body weight decrease (Swiss Webster mice, Schistosoma mansoni-infected; 200 mg/kg single dose on day 42 post-infection, perfusion day 56 post-infection; relative to: vehicle): -8%

COCCN(C)CC(=O)NC(Cc1ccc(-c2ccccc2)cc1)B(O)O (centres unmarked)
Papp B→A (Caco-2): 22 ×10⁻⁶ cm/s

CN([O-])C(=O)CN1CCNCCN(CC(=O)N(C)[O-])CC1.[89Zr+4]
tracer uptake (mouse, muscle; intravenous, 24 h): 0.04 %ID/g

COc1cccc(OC)c1-c1cc(C(=O)NC2(C(=O)O)C3CC4CC(C3)CC2C4)nn1-c1ccc(C(=O)N(C)CCCN(C)C(=O)[C@H](CCCCNC(=O)[C@H](CC(C)C)NC(=O)C2OC2C(=O)O)NC(=O)CN2CCN(CC(=O)[O-])CCN(CC(=O)[O-])CCN(CC(=O)[O-])CC2)cc1C(C)C.[177Lu+3] (mixture of isomers)
tumour-to-large intestine ratio (mouse HT-29 xenograft; 72 h, biodistribution; relative to: tumour over large intestine): 11.9

O=C(Nc1cnccc1-c1ccc([18F])cc1)c1ccnc(NC(=O)C2CC2)c1
mean SUV (ex vivo gamma counting; FVB/NJ mice, both sexes, left kidney; intravenous, 120 min): 0.55

C/C(N)=N/C(=N\S(=O)(=O)c1ccc(C(F)(F)F)cc1)N1C[C@H](c2ccccc2)C(c2ccc(Cl)cc2)=N1
Tmax (C57BL/6 mouse, liver; intravenous, 10 mg/kg): 12 min

CC(C)C[C@H](NC(=O)[C@H](Cc1ccc(O)cc1)NC(=O)[C@@H](CCCNC(=N)N)NC(=O)[C@@H](CO)NC(=O)[C@H](Cc1ccccc1)NC(=O)[C@H](CC1CCCCC1)NC(=O)[C@H](CC(=O)O)NC(=O)CN1CCN(CC(=O)O)CCN(CC(=O)O)CCN(CC(=O)O)CC1)C(=O)N[C@@H](Cc1c[nH]c2ccccc12)C(=O)N[C@@H](CO)C(=O)O [copper-64 labelled]
activity concentration (human, lower large intestine; concentration not given, 24 h): 600 Bq/mL and 741 Bq/mL and 1600 Bq/mL and 1870 Bq/mL and 957 Bq/mL and 1550 Bq/mL

For quick reference, copied from above:
CCCCCCCCCCO[Si](CCCCN(C)C)(OCCCCCCCCCC)OCCCCCCCCCC
zeta potential (pH 7.5, formulated): -0.05 mV

CC(C)(C)NCC(SS(=O)(=O)O)c1ccccc1 (centres unmarked)
body weight decrease (Swiss Webster mice, Schistosoma mansoni-infected; 200 mg/kg single dose on day 42 post-infection, perfusion day 56 post-infection; relative to: vehicle): -8%

COCCN(C)CC(=O)NC(Cc1ccc(-c2ccccc2)cc1)B(O)O (centres unmarked)
Papp B→A (Caco-2): 22 ×10⁻⁶ cm/s
